Published values gathered from unrelated publications.
Numbered parts are unrelated; each lists some results of a single study.

Series 1 — technique: RNA Bind-n-Seq; form: RNA; sample: in vitro; tested at: 20 nM; setting: 6-mer, flanks averaged, single round; added: 150 mM KCl; reference: input library; direction: higher = stronger binding
Target: TAR DNA-binding protein 43, full length, His tag (TARDBP, Homo sapiens, UniProt Q13148, residues 1-414)
`ACUUCU`: “6-mer enrichment (R)” 0.552.
Under “6-mer enrichment (R)”, `AGGAUA` is recorded as 0.781.
Under “6-mer enrichment (R)”, `UUUAUC` is recorded as 0.591.
`CUGCCA` — result for “6-mer enrichment (R)”: 0.657.
For `AUCGCA`, “6-mer enrichment (R)” read 0.635.
`ACCCUU` — result for “6-mer enrichment (R)”: 0.661.
`AUCGAG`: “6-mer enrichment (R)” 0.86.
`UUACGC` — result for “6-mer enrichment (R)”: 0.616.
Under “6-mer enrichment (R)”, `UAGGUU` is recorded as 0.698.
`GUCUUG` — result for “6-mer enrichment (R)”: 0.839.
For `GCACAA`, “6-mer enrichment (R)” read 0.798.
Under “6-mer enrichment (R)”, `CGAUCC` is recorded as 0.602.
For `CAUGUG`, “6-mer enrichment (R)” read 0.988.
`CUCCUC`: “6-mer enrichment (R)” 0.576.
`AUUCAA` — result for “6-mer enrichment (R)”: 0.566.
Under “6-mer enrichment (R)”, `UCCCGU` is recorded as 0.61.
For `CCUUUG`, “6-mer enrichment (R)” read 0.675.
Under “6-mer enrichment (R)”, `ACGGAU` is recorded as 0.796.
`GUCGUG`: “6-mer enrichment (R)” 1.34.
`AUGGUC`: “6-mer enrichment (R)” 0.721.
For `UCUAGG`, “6-mer enrichment (R)” read 0.886.
`AGUGUC` — result for “6-mer enrichment (R)”: 0.764.

Series 2 — technique: DNA-protein interaction ELISA; form: double-stranded DNA, one strand shown; sample: in vitro, bacterial lysate; tested at: not given; setting: whole dsDNA probe, crude lysate protein; reference: highest signal in screen; direction: higher = stronger binding
Target: Probable WRKY transcription factor 33, C-terminal DNA-binding domain (WRKY33, Arabidopsis thaliana, UniProt Q8S8P5, residues 346-449)
Construct (chain): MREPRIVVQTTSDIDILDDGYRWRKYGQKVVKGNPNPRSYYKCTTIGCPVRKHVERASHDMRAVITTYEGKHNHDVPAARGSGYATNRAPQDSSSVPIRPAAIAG
The relative absorbance of `AAAAAAATCACGGTTCGACCTCCAGCAAAA` is reported as 40.5 % of maximum.
For `AAAAAATATCATTGTTACCGTTGCTAAAAA`, the relative absorbance was 56.6 % of maximum.
For `AAAAAAGGCGTCTGACTGTAACTCGTAAAA`, the relative absorbance was 99.8 % of maximum.
`AAAAAAGCCATCATGGTTAGTGTACAAAAA` has a relative absorbance of 37 % of maximum.
With `AAAAAATATTCGCCGGTAGCCACGCTAAAA` the relative absorbance was 78.2 % of maximum.
For `AAAAAACAGTTCGATGTCACCCCCGCAAAA`, the relative absorbance was 38.1 % of maximum.
The relative absorbance of `AAAAAAAGTTTGACCTTGGCGTTCGTAAAA` is reported as 99.3 % of maximum.
`AAAAAAAGGGTGCTATTCGTCGACACAAAA` has a relative absorbance of 59.2 % of maximum.
The relative absorbance of `AAAAAACCTTACTGTTGATTCTGGTTAAAA` is reported as 47.9 % of maximum.
With `AAAAAACCGACCTGCACGTCGCTGCTAAAA` the relative absorbance was 40.8 % of maximum.
With `AAAAAAGGGTATACTCGCAGCCCCTAAAAA` the relative absorbance was 36.4 % of maximum.
The relative absorbance of `AAAAAATCGCGAACGTACGTCCGCGGAAAA` is reported as 37.3 % of maximum.
For `AAAAAATGCCGAGACCCCATGCCGGCAAAA`, the relative absorbance was 42 % of maximum.
With `AAAAAATCCACGACTCAGCAGCTCTTAAAA` the relative absorbance was 51.1 % of maximum.
With `AAAAAAACGGTGTCATAGTATTAGTGAAAA` the relative absorbance was 57 % of maximum.
The relative absorbance of `AAAAAAACCCGGCCGCCATGGTAGTAAAAA` is reported as 46 % of maximum.
`AAAAAATCAAAACAACGATGCCGTTAAAAA` has a relative absorbance of 53.2 % of maximum.
For `AAAAAATGACCAGGCCTCGAGCAAAAA`, the relative absorbance was 55.6 % of maximum.
With `AAAAAATGCAACGCTCCTTTCCCGCTAAAA` the relative absorbance was 31.4 % of maximum.
`AAAAAACGGTAAGTCGACAAAA` gave a relative absorbance of 65.5 % of maximum.
`AAAAAATTTCTATTTCATCTTTGCCCAAAA` gave a relative absorbance of 36.8 % of maximum.
The relative absorbance of `AAAAAATGTCTAGACTCGGACATTCGAAAA` is reported as 29.2 % of maximum.
`AAAAAATGAGAGAATTTCCGGTTCAGAAAA` has a relative absorbance of 25.1 % of maximum.
For `AAAAAAACTTCTGTCCCTGTTCCCGTAAAA`, the relative absorbance was 58 % of maximum.
The relative absorbance of `AAAAAATGGCTCGGGTTCCAAGGTTGAAAA` is reported as 37.3 % of maximum.

Series 3 — technique: protein binding microarray; form: double-stranded DNA, one strand shown; sample: in vitro; tested at: not given; reference: not given; direction: higher = stronger binding
Target: Histone acetyltransferase KAT6A, winged helix 1, GST fusion (KAT6A, Homo sapiens, UniProt Q92794, residues 1-85)
Setting: 8-mer, flanks averaged, mean of 2 arrays, mostly near background
Construct (chain): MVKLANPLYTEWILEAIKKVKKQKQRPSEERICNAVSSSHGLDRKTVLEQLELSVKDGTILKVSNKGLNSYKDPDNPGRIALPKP
`CCGAGTCA` gave an E-score of -0.0536.
With `AGTTTGGC` the E-score was 0.00886.
The E-score of `GGTGAACA` is reported as -0.23.
For `ACATACGT`, the E-score was -0.0127.
`AGCGCATC` gave an E-score of 0.281.
With `TCTTAAAA` the E-score was -0.255.
The E-score of `CGCTAAGA` is reported as 0.153.
With `CCTGTGTC` the E-score was -0.129.
The E-score of `ATCGGTCA` is reported as 0.0997.
`GTCATGGA` gave an E-score of -0.152.
The E-score of `CCTGTGGC` is reported as -0.171.
With `AATACGGT` the E-score was 0.152.
The E-score of `ATTCGTGA` is reported as -0.122.
With `AATTTAGT` the E-score was -0.0695.
With `CTCGACGA` the E-score was -0.0109.
For `CGACCTTC`, the E-score was 0.04.
`CCTCACCG` gave an E-score of 0.0765.
For `TCTTCCAA`, the E-score was -0.154.
`CAAGAGTA` gave an E-score of -0.216.
`CTTGGGCA` gave an E-score of -0.048.
For `AACTGACG`, the E-score was 0.00455.
The E-score of `CAGCAAAG` is reported as -0.0882.
`GCCAGAAC` gave an E-score of -0.113.
For `AGCAATCG`, the E-score was -0.00115.
The E-score of `GCGTATCC` is reported as 0.15.

Series 4 — technique: RNA Bind-n-Seq; form: RNA; sample: in vitro; tested at: 200 nM; setting: whole 134-nt RNA, ends assumed; added: 150 mM LiCl; reference: input library; direction: higher = stronger binding; each molecule: 7-deaza-guanosine replaces G
Target: Ras GTPase-activating protein-binding protein 1, full length (G3BP1, Homo sapiens, UniProt Q13283)
Chain of UniProt Q13283 (whole entry, looked up): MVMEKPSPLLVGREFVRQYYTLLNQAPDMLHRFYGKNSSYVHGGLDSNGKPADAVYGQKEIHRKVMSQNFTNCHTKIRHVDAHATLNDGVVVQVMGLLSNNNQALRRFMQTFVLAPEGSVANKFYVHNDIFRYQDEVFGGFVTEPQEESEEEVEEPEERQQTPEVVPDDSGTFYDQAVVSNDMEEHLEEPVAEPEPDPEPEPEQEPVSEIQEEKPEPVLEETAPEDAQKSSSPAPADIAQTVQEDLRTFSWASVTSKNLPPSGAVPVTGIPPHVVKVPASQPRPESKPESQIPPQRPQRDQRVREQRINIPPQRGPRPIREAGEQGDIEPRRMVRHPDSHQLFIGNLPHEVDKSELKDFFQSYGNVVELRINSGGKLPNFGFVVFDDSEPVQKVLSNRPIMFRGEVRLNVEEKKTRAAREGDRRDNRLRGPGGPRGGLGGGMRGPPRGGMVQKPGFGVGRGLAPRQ
The log2 enrichment of `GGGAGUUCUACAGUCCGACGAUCUAACUUUCGAGGAGGAUCUGAUGGAUAUGGCAGUGGACGUGGAUUUGGGGAUGGCUAUAAUGGGUAUGGAGGAGGACCUGGAGGUGGCAAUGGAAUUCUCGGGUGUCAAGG` is reported as 0.00449.
For `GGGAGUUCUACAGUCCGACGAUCUCCUGUGCUACACAUCGUAUGUACCGAAUCAAACCCCCCCAAAUUUUUUUAAAUUUAAAAAAGUAUUAUGUUACGCCGUUCGGAUCUGCAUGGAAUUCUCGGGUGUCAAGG`, the log2 enrichment was 1.42.
`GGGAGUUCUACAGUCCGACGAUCAAGUCCUGUGCUACACAUCGUAUGUACCGAAUCGGGGAAAAGGAAAAGGAAAAGGGGAAAGUAUUAUGUUACGCCGUUCGGAUCUGCACUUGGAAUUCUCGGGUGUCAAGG` gave a log2 enrichment of 0.371.
The log2 enrichment of `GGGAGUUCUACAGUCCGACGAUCCCUGUGCUACACAUCGUAUGUACCGAAUCGGGUUUUUGGGUUUUUUUGGGAAAAAAAGGGAAAGUAUUAUGUUACGCCGUUCGGAUCUGCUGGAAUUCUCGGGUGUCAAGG` is reported as -0.229.
The log2 enrichment of `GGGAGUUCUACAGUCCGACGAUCGAGGGAGUUUGCAGAUACCUCAGGAUUCGUGACAAUGCCUUUAAAGAUCCAGGAGAGAUGUUCAGCUACUAGGAACUGCUAGCAAGUAUAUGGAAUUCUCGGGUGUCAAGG` is reported as -0.774.
With `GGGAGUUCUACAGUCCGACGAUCUGGGAGGUGGAUAUUGUUUAUUUUUUUAGCUCAUUUCCAGGGGUGGGAAUUUUUUUUUAAUAUGUGUCAUGAAUAAAGUUGUUUUUGAAAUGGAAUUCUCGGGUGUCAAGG` the log2 enrichment was -0.737.
The log2 enrichment of `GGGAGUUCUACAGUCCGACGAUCCACAGACAACACGCACCCACACAGACACAGAGGGAAGGGGUUGGGAUGGGGACAGGGUGCACAGCAGGGGGGGGUAGGACCCCAGCCCCUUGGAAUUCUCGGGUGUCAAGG` is reported as 0.693.
The log2 enrichment of `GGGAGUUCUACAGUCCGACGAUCAAGUCCUGUGCUACACAUCGUAUGUACCGAAUCGGGAAAAAAAGGGUGGGUUUGGGAAAGUAUUAUGUUACGCCGUUCGGAUCUGCACUUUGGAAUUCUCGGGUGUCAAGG` is reported as -1.65.
The log2 enrichment of `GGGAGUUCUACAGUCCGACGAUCACCAUGCAGGUGGGCAUCUUUGGGAAGUGGGGCAAGGGGGGGAUAGGGAGGGGGGUAACACUUUGGGAACAGGUGGAAACAGGUCGUUUCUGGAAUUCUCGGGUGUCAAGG` is reported as -0.0896.
The log2 enrichment of `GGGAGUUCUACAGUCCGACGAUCCUCAAGUCCUGUGCUACACAUCGUAUGUACCGAAUCGGGGCGGGGCGGCGGGGAAAGUAUUAUGUUACGCCGUUCGGAUCUGCACUUCCAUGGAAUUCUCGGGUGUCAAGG` is reported as -0.348.
`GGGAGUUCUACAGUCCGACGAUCAAGUCCUGUGCUACACAUCGUAUGUACCGAAUCGGAAAAAAAGGUUUGGAAAAAGGAAAGUAUUAUGUUACGCCGUUCGGAUCUGCACUUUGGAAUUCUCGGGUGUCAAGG` has a log2 enrichment of -2.09.
